Results pooled from the literature.
Every numbered part comes from another study and shows a few of its results, in no order.

Block 1
Target: Ras GTPase-activating protein-binding protein 1, C-terminal RGG region (G3BP1, Homo sapiens, UniProt Q13283)
UniProt Q13283, sequence (whole entry, looked up): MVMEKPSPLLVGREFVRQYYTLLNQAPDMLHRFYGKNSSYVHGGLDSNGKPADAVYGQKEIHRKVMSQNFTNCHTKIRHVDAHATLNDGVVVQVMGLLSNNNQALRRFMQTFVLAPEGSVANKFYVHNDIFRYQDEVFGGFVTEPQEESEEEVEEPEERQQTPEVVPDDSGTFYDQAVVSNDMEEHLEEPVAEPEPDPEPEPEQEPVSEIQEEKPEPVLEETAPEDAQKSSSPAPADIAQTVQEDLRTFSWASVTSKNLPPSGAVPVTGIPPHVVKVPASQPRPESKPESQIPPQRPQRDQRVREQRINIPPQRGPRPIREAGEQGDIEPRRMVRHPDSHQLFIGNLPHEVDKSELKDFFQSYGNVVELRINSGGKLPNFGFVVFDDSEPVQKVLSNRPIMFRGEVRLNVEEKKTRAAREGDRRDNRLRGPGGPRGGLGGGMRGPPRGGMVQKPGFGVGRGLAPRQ
Technique: RNA Bind-n-Seq
Form: RNA
Medium: in vitro
Concentration: 1 µM
Notes: whole 134-nt RNA, ends assumed
With: 150 mM KCl
Baseline: input library
Reading: higher = stronger binding
All sequences stand within: GGGAGUUCUACAGUCCGACGAUC … UGGAAUUCUCGGGUGUCAAGG
| Strand | log2 enrichment |
| --- | --- |
| GCAGGAAGUAAAAACAAAUGGAAAUGCUUCGGAUAGUGGCAGUGGUGGGGGUUGCUAAGGAAAGGGUGGGAUGGGAGUGGGUAAAGAGUU | 1.29 |
| UGUGCUACACAUCGUAUGUACCGAAUCGGGGUUUUUUUGGGGAAAAAGGGGAAAAAAAGGGGAAAGUAUUAUGUUACGCCGUUCGGAUCU | 0.0513 |
| UUCUUGCCUAUGCUGUGCGCCACACCAUCCAGGUGUACCGGCUCUCCAAGUACAACACGGAAGAAUUCAUCACAGUCUACCCCACCGACC | 0.263 |
| CAAGUCCUGUGCUACACAUCGUAUGUACCGAAUCGGGUUUGGGUUUGGGUUUGGGGAAAGUAUUAUGUUACGCCGUUCGGAUCUGCACUU | 2.59 |
| CAAGUCCUGUGCUACACAUCGUAUGUACCGAAUCGGGGCCCGGGCCCGGGCCCGGAAAGUAUUAUGUUACGCCGUUCGGAUCUGCACUUC | -2.26 |
| CUCAAGUCCUGUGCUACACAUCGUAUGUACCGAAUCGGGUGGGUGGGAAAGGGAAAGUAUUAUGUUACGCCGUUCGGAUCUGCACUUCCA | 1.62 |
| CCUGUGCUACACAUCGUAUGUACCGAAUCGGGGAAAAAAAGGGGAAAGGGGAAAAAGGGGAAAGUAUUAUGUUACGCCGUUCGGAUCUGC | 0.861 |
| CCUCAAGUCCUGUGCUACACAUCGUAUGUACCGAAUCGGGAGGGGAGGAGGGGAAAGUAUUAUGUUACGCCGUUCGGAUCUGCACUUCCA | 0.784 |
| AGUCCUGUGCUACACAUCGUAUGUACCGAAUCGGGGAAAAAGGGAAAAAGGAAAAAGGAAAGUAUUAUGUUACGCCGUUCGGAUCUGCAC | -1.87 |
| GUCCUGUGCUACACAUCGUAUGUACCGAAUCGGGGAAAAAAAGGGGUUUGGGGAGGGGAAAGUAUUAUGUUACGCCGUUCGGAUCUGCAC | 2.55 |
| UUAAAACAUGGCAACUUGUAAUUGUUUUCUUUCUUAGGAACAUCAUUCAUGGCAGUGAUUCAGUAAAAAGUGCUGAAAAAGAAAUCAGCC | -0.712 |
| UGGAAGGUGGAUUUUGUUUAUUUUUUUAGCUCAUUUCCAGGGGUGGGAAUUUUUUUUUAAUAUGUGUCAUGAAUAAAGUUGUUUUUGAAA | 3.67 |
| GUCCUGUGCUACACAUCGUAUGUACCGAAUCGGGAAAAAAAGGGUGGGAAAAAAAGGGAAAGUAUUAUGUUACGCCGUUCGGAUCUGCAC | -0.387 |
| CUCAAGUCCUGUGCUACACAUCGUAUGUACCGAAUCGGGAAGGGGAAGGAAGGGAAAGUAUUAUGUUACGCCGUUCGGAUCUGCACUUCC | -0.991 |

Block 2
Target: Prothrombin, mature alpha-thrombin (F2, Homo sapiens, UniProt P00734)
Technique: aptamer microarray, sandwich
Form: DNA with 2'F-ANA
Medium: in vitro
Concentration: 200 nM
Notes: whole 15-mer aptamer, many near background
With: Cy3 exosite-II aptamer, 400 nM
Reading: higher = stronger binding
Strand: GGTTGGTGTGGTTGG
| Modification | mean fluorescence intensity [a.u.] |
| --- | --- |
| 2'F-ANA at 1 2 3 5 7 9 13 14 | 46.4 |
| 2'F-ANA at 1 3 6 8 11 12 | 531 |
| 2'F-ANA at 1 2 4 5 12 15 | 99.4 |
| 2'F-ANA at 1 3 6 8 11 12 14 15 | 114 |
| 2'F-ANA at 2 4 8 9 10 13 15 | 70.5 |
| 2'F-ANA at 2 3 4 7 11 12 13 14 | 316 |
| 2'F-ANA at 4 5 7 8 10 11 12 13 | 93.3 |
| 2'F-ANA at 1 2 4 5 8 9 10 11 | 45.8 |
| 2'F-ANA at 1 2 3 5 9 12 14 | 45.7 |
| 2'F-ANA at 3 4 5 7 9 10 11 13 | 59.3 |
| 2'F-ANA at 1 2 3 4 5 6 7 11 13 14 15 | 49.6 |
| 2'F-ANA at 1 7 8 11 12 14 | 74.4 |
| 2'F-ANA at 2 4 6 7 9 10 11 12 15 | 132 |
| 2'F-ANA at 2 3 4 6 8 9 10 11 12 13 15 | 186 |
| 2'F-ANA at 3 4 6 8 10 11 13 | 184 |
| 2'F-ANA at 2 3 4 5 6 9 11 13 15 | 61.9 |
| 2'F-ANA at 1 4 8 9 12 13 | 187 |
| 2'F-ANA at 10 11 14 15 | 96.4 |
| 2'F-ANA at 2 3 4 5 7 8 12 13 14 | 53.5 |
| 2'F-ANA at 2 3 5 6 8 9 13 14 15 | 51.1 |
| 2'F-ANA at 11 13 15 | 459 |
| 2'F-ANA at 1 2 3 4 5 6 7 8 9 10 | 57.9 |
| 2'F-ANA at 1 3 6 8 9 10 11 12 13 14 15 | 65.8 |
| 2'F-ANA at 1 2 3 5 7 8 10 11 13 14 | 46.5 |
| 2'F-ANA at 3 4 6 9 12 13 14 15 | 238 |

Block 3
Target: Sal-like protein 4, full length isoform A (SALL4, Homo sapiens, UniProt Q9UJQ4, residues 1-1053)
UniProt Q9UJQ4, sequence (whole entry, looked up): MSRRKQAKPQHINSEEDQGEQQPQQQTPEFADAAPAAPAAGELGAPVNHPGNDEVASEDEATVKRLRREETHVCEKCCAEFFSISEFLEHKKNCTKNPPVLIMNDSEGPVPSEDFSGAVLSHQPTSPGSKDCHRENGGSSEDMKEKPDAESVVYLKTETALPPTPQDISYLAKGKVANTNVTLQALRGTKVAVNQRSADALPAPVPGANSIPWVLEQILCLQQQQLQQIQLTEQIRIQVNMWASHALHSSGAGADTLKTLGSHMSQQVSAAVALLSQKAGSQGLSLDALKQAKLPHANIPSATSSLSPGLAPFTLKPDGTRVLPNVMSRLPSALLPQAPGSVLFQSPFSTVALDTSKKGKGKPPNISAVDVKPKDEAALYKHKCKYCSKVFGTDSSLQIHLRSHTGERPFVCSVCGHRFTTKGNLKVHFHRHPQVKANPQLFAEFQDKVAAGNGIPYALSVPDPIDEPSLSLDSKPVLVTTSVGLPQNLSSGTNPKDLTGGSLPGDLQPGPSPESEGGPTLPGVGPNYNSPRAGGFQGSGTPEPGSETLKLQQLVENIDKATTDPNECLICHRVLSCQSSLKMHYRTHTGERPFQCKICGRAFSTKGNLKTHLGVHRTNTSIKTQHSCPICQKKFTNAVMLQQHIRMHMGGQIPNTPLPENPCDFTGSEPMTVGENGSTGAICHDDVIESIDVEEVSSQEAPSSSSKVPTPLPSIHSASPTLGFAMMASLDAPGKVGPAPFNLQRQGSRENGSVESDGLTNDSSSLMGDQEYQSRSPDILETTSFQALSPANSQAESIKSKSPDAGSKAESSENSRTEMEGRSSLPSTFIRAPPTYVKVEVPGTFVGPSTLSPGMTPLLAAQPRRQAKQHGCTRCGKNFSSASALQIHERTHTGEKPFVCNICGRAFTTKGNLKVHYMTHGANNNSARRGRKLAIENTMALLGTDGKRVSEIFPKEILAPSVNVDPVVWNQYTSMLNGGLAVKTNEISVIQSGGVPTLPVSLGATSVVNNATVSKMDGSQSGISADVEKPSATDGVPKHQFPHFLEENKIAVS
Technique: universal PBM
Form: double-stranded DNA, one strand shown
Medium: in vitro
Concentration: 600 nM
Notes: 8-mer, flanks averaged, mean of replicates
Reading: higher = stronger binding
| Strand | E-score |
| --- | --- |
| AGTCTAAC | -0.0197 |
| TGATTAAA | 0.304 |
| TCCGTTAA | 0.0123 |
| ATTGTCTG | 0.215 |
| CTGTAATC | 0.0698 |
| AGGCATCG | -0.209 |
| TCACTCAA | 0.0958 |
| CGATGACA | 0.0811 |
| CACAAGGG | -0.236 |
| GACCTTGA | 0.0712 |
| AAGTAAGC | 0.114 |
| CCATTTCG | -0.125 |
| CGATCTAC | -0.0416 |
| AAACCACG | -0.153 |
| ATGGAACG | -0.106 |
| ACGGCTCT | -0.155 |
| AAAATCCG | 0.0225 |
| CATAGATG | 0.0879 |
| CAGAGACC | -0.21 |
| ATAGCGGC | -0.105 |
| CGATAACG | -0.0199 |
| AATTCGCA | 0.0775 |
| AAAGTACC | 0.0461 |
| TGAATCAA | 0.246 |
| CACTTCCC | -0.23 |

Block 4
Target: Histone acetyltransferase KAT6A, winged helix 2, GST fusion (KAT6A, Homo sapiens, UniProt Q92794, residues 85-181)
Technique: protein binding microarray
Form: double-stranded DNA, one strand shown
Medium: in vitro
Concentration: not given
Notes: 8-mer, flanks averaged, mean of 2 arrays, mostly near background
Baseline: not given
Reading: higher = stronger binding
Residues (chain): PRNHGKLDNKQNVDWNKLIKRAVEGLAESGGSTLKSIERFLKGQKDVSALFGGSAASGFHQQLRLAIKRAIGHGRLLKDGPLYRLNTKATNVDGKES
| Strand | E-score |
| --- | --- |
| ATTTGTGA | -0.0221 |
| TCGTAAGA | -0.0831 |
| CAAAATTC | 0.187 |
| ATTGGATC | 0.0833 |
| AGGGATTG | 0.0665 |
| AAACACTT | -0.0659 |
| CCTAGTGC | 0.0698 |
| ACACGCAC | -0.0368 |
| CGCAAAAG | 0.0456 |
| CCAGACCA | -0.0106 |
| CAAAGGGC | 0.0684 |
| CGAAATAA | 0.151 |
| CAACTAGA | -0.0291 |
| CAAGCTGC | 0.12 |
| ACGTCCAC | -0.152 |
| AAGTTAGG | 0.0876 |
| GCCGGAGC | 0.0924 |
| ATAACAAT | 0.052 |
| AAAGAGAG | 0.00946 |

Block 5
Target: RNA binding protein fox-1 homolog 2, RRM domain, GST-SBP tag (RBFOX2, Homo sapiens, UniProt O43251-10, residues 100-194)
Technique: RNA Bind-n-Seq
Form: RNA
Medium: in vitro
Concentration: 365 nM
Notes: natural RNA segment, single round, ends assumed
Baseline: no-protein control
Reading: higher = stronger binding
All sequences stand within: GGGAGUUCUACAGUCCGACGAUC … UGGAAUUCUCGGGUGCCAA
Target sequence (chain): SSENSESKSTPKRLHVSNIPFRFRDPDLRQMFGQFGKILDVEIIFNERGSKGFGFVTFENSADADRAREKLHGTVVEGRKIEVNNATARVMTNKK
| Strand | RBNS enrichment (R) |
| --- | --- |
| CAAAGACCUUGUUACACAGAGAGCCUCCGAUAUCCUAAGUAGGGAGGACACUGUCAGUAGGGAACGGAAUGAAAACUCAAAUGUUGCCUGCAGUUGAGCAAGGAAGCUGA | 0.569 |
| CAUUCCUGAUUUAGCUAUUAUUUCUUUGUCUGAAGUCUGCCAUACUCACUUUGGGCCAGAGAGAGGUUACCUCACAGUGUGCUUCUGACGUCACAUUUCUCGGCCUCCGA | 0.227 |
| CUCCCACAAAUAAGUUCCCAUUUCCUUGUCUAAAGAUCUUUUUUUAAGUGUUCUGUGGCUGAUUUACUAACAGUAACUGCCAUUUUUUGUCUGUGAUAACAGAGUGAUUU | 0.832 |
| AAAAAUCCACUCAUAUAAAAGGUGAGCUCAGCUCACUGGUCCAUUUCUCAGUGGCUUCUCCAUCCUCAUUUGCAAACCUCAGAGGGAUAAGGCAGUUGAACCUGAUGAGC | 0.44 |
| CUAAAUCUGCUGUGCAGGUUGGGCUGGUCAUACUGUCAUGAUUUCAUUAACAGCCUGGGUGAACAUGGCUGGGAGUAAAGGGCUUGCUCUCCUGCAUGUUGACAUGACGG | 6.41 |
| UGGCUCCCUUGUCUCCAGGGCUUUGGAGGAUCAGGGUAGGGAGGGCUCUGUCUCUAAGCCAGGUGUCAGGAUCAGAAUCAUGGGUAGAAGGUGCCAUUCAGCUCACAGCC | 0.705 |
| GUGUUUAAUGUUGCAGCAAACUCACCAAGAAGGAGACAAAUGGCUGUUUCGAAUGGAAGCUUUCUCAGCAGACAAUGUGUGCACAGUAAACUUCAGCAGAGUCCACUUGU | 0.459 |
| AUGCUGGUCUUUCCGACCUGGUGCUCUUCUGCUGGGGGACUGAGGCUGGCCCUCAUUCGGGGUCGGGAACCAAGGGUGUGUCUGCUCUUUCCCUCCCCAUCCUCUGGCAG | 0.225 |
| CCUAAUAUAUCCAAAUCCAACUGAAUACCAAAUUGAGAUGGCAAAUUUUUGUUUGAUAUAAGUUAGCUUGUUAGCAUAUGCCCUAGAGGGCCUCCAUCCCUGUAUUCUAA | 0.559 |
| AGCAUUGUAAAUAAUCUUAUGAAACCUUUUUUGAUUGAAGCUAUUCAAAAUAAAAAUUUUAAUGAAUAAAUAACACUUUUUUUCUGUGUCUUUAUUCAUUUGUUUGCUUU | 1.12 |
| AGGGAGAGGACACCAGCACCUGGGACCUCCAGAGAAGCCGCACUGAGCGGACUUGUCGACAGAGGGUGAAAAAUUACUCCCACGCAGUCAGUAACCAUUUCUCUUAUUUU | 0.423 |
| UUACCGGUUGAUUGAAAUAUCAGUUAAAGGUUGCCAGCAUGGUUGCAGAUAAACUGAUGUUUGAAAUUCGCUGAAAUACUUAAUGUGGAAUAGGAUAAUAUACUUCCAAU | 0.24 |
